Results collected from several papers.
Compare with care: the assays were run in different laboratories.
Organism: Escherichia coli

`CCN1CCN(C(=O)N[C@@H](C(=O)N[C@@H]2C(=O)N3[C@@H]2SC(C)(C)[C@@H]3C(=O)O)c2ccccc2)C(=O)C1=O` has an MIC of greater than 200 µg/mL (broth microdilution; ATCC 35218, low-level TEM-1; no clavulanic acid).
With `CC[C@H](C)[C@H](NC(=O)[C@H](CCCCN)NC(=O)[C@H](Cc1c[nH]c2ccccc12)NC(=O)[C@H](Cc1c[nH]c2ccccc12)NC(=O)[C@H](CCCCN)NC(=O)[C@H](CCCCN)NC(=O)[C@H](CCCCN)NC(=O)[C@H](Cc1c[nH]c2ccccc12)NC(=O)[C@H](CCCCN)NC(=O)[C@H](CCCCN)NC(=O)[C@H](Cc1c[nH]c2ccccc12)NC(=O)[C@H](CCCCN)NC(=O)[C@H](CCCCN)NC(=O)[C@@H](NC(=O)[C@@H](NC(=O)[C@H](CCCCN)NC(=O)[C@@H](N)CCCNC(=N)N)[C@@H](C)CC)[C@@H](C)CC)C(=O)N[C@@H](Cc1c[nH]c2ccccc12)C(=O)N[C@@H](Cc1c[nH]c2ccccc12)C(=O)N[C@@H](CCCCN)C(=O)NCCOCCOCC(N)=O` the MIC was 1.9 µg/mL (broth microdilution; 25922).
`C[C@@H](O)[C@H]1C(=O)N2C(C(=O)O)=C(S[C@@H]3CN[C@H](CNS(N)(=O)=O)C3)[C@H](C)[C@H]12` has an MIC of less than 0.09 µg/mL (BL21(DE3) wild type).
With `CC[C@H](C)[C@H](NC(=O)[C@H](CC(C)C)NC(=O)[C@H](CCCNC(=N)N)NC(=O)[C@@H](N)CCCNC(=N)N)C(=O)N[C@@H](CCCNC(=N)N)C(=O)N[C@@H](CCCCN)C(=O)N[C@@H](CC(C)C)C(=O)N[C@@H](CCCCN)C(=O)NCC(=O)N[C@@H](CC(C)C)C(=O)N[C@@H](CCCCN)C(=O)N[C@@H](CCCCN)C(=O)N[C@@H](Cc1ccc(O)cc1)C(=O)N[C@@H](CC(C)C)C(=O)N[C@@H](Cc1ccc(O)cc1)C(=O)N[C@@H](Cc1ccccc1)C(=O)N[C@@H](CCCCN)C(=O)N[C@@H](CC(C)C)C(=O)N[C@@H](CCC(N)=O)C(=O)N[C@@H](CC(C)C)C(=O)N[C@@H](CC(C)C)C(=O)N[C@@H](CCCCN)C(=O)N[C@@H](CCCCN)C(N)=O` the MIC was 8 µM (broth microdilution; KCTC 1682, Mueller-Hinton broth; no added salt).
With `CC[C@H](C)[C@H](NC(=O)[C@H](CC(C)C)NC(=O)[C@H](CCCCN)NC(=O)[C@H](CC(C)C)NC(=O)CNC(=O)[C@@H](NC(=O)[C@H](CO)NC(=O)[C@@H](NC(=O)[C@@H](NC(=O)[C@H](CCC(N)=O)NC(=O)[C@H](Cc1c[nH]c2ccccc12)NC(=O)[C@H](CCCNC(=N)N)NC(=O)[C@H](CC(N)=O)NC(=O)[C@H](CCCNC(=N)N)NC(=O)[C@H](CCCNC(=N)N)NC(=O)[C@@H](NC(=O)[C@H](Cc1ccccc1)NC(=O)[C@H](CCCNC(=N)N)NC(=O)CNC(=O)[C@H](C)NC(=O)[C@H](CCCNC(=N)N)NC(=O)[C@H](CCCNC(=N)N)NC(=O)[C@H](CCCCN)NC(=O)[C@H](Cc1ccccc1)NC(=O)[C@H](CCCNC(=N)N)NC(=O)CNC(=O)[C@H](Cc1c[nH]c2ccccc12)NC(=O)[C@H](CCCNC(=N)N)NC(=O)CNC(=O)[C@H](CCCNC(=N)N)NC(=O)[C@@H](N)[C@@H](C)O)[C@@H](C)CC)[C@@H](C)CC)[C@@H](C)CC)[C@@H](C)O)C(=O)NCC(=O)O` the MIC was 0.6 µM (ATCC 25922; highest concentration 50 µM).
With `CC(C)C[C@@H](NC(=O)CNC(=O)[C@@H](CCCCN)NC(=O)[C@@H](CC(C)C)NC(=O)[C@@H](CCCCN)NC(=O)[C@@H](CCCNC(=N)N)NC(=O)[C@@H](CC(C)C)NC(=O)[C@@H](CC(C)C)NC(=O)[C@@H](CCCNC(=N)N)NC(=O)[C@H](N)CCCNC(=N)N)C(=O)N[C@H](CCCCN)C(=O)N[C@H](CCCCN)C(=O)N[C@H](Cc1ccc(O)cc1)C(=O)N[C@H](CC(C)C)C(=O)N[C@H](Cc1ccc(O)cc1)C(=O)N[C@H](Cc1ccccc1)C(=O)N[C@H](CCCCN)C(=O)N[C@H](CC(C)C)C(=O)N[C@H](CCC(N)=O)C(=O)N[C@H](CC(C)C)C(=O)N[C@H](CC(C)C)C(=O)N[C@H](CCCCN)C(=O)N[C@H](CCCCN)C(N)=O` the MIC was 8 µM (KCTC 1682, Mueller-Hinton broth; together with: 1 mM MgCl2).
The MIC of `CC[C@H](C)[C@H](NC(=O)[C@H](C)NC(=O)CNC(=O)[C@H](C)NC(=O)[C@H](CCCNC(=N)N)NC(=O)[C@H](CO)NC(=O)[C@H](C)NC(=O)[C@H](CCSC)NC(=O)CN)C(=O)N[C@@H](C)C(=O)NCC(=O)N[C@@H](CCCNC(=N)N)C(=O)N[C@H](C(=O)N[C@@H](C)C(=O)N[C@@H](CCCNC(=N)N)C(=O)N[C@H](C(=O)N[C@@H](C)C(=O)N[C@@H](CC(C)C)C(=O)N[C@@H](CCCNC(=N)N)C(=O)N[C@@H](C)C(=O)N[C@@H](CC(C)C)C(N)=O)C(C)C)[C@@H](C)CC` is reported as 1.9 µM (broth dilution; K12 BW25113; 18 h, 37 °C).
With `CC[C@H](C)[C@H](NC(=O)CNC(=O)[C@H](CC(=O)O)NC(=O)[C@H](CCCNC(=N)N)NC(=O)[C@@H](NC(=O)[C@H](CC(N)=O)NC(=O)[C@H](C)NC(=O)CNC(=O)[C@@H](NC(=O)[C@H](CCCCN)NC(=O)[C@H](CCC(=O)O)NC(=O)[C@@H](NC(=O)[C@H](CCCCN)NC(=O)[C@H](CCCCN)NC(=O)[C@H](Cc1ccccc1)NC(=O)[C@@H](NC(=O)[C@H](CCCCN)NC(=O)[C@H](Cc1c[nH]c2ccccc12)NC(=O)[C@@H](N)CCCNC(=N)N)[C@@H](C)CC)[C@@H](C)CC)C(C)C)C(C)C)C(=O)N[C@H](C(=O)N[C@@H](CCCCN)C(=O)N[C@@H](C)C(=O)NCC(=O)N1CCC[C@H]1C(=O)N[C@@H](C)C(=O)N[C@H](C(=O)N[C@@H](C)C(=O)N[C@H](C(=O)N[C@H](C(=O)NCC(=O)N[C@@H](CCC(N)=O)C(=O)N[C@@H](C)C(=O)N[C@@H](C)C(=O)N[C@H](C(=O)N[C@H](C(=O)N[C@H](C(=O)N[C@@H](CCCCN)C(N)=O)C(C)C)C(C)C)[C@@H](C)O)C(C)C)C(C)C)C(C)C)[C@@H](C)CC` the MIC was 2 µM (KCTC 1682, Mueller-Hinton broth; 16 h, 37 °C; growth inhibition over 99%).
`C[C@@H](O)[C@H]1C(=O)N2C(C(=O)O)=C(S[C@@H]3CN[C@H](C(=O)N(C)C)C3)[C@H](C)[C@H]12` gave an MIC of 1 µg/mL (DH5α expressing KPC-136).
For `COc1c(N2C[C@@H]3CCCN[C@@H]3C2)c(F)cc2c(=O)c(C(=O)O)cn(C3CC3)c12`, the MIC was 73 µM (NR 48983, fluoroquinolone-resistant).
`CC[C@H](C)CCCCC(=O)N[C@@H](CCN)C(=O)N[C@H](C(=O)N[C@@H](CCN)C(=O)N[C@H]1CCNC(=O)[C@H]([C@@H](C)O)NC(=O)[C@H](CCN)NC(=O)[C@H](CCN)NC(=O)[C@H](CC(C)C)NC(=O)[C@@H](Cc2ccccc2)NC(=O)[C@H](CCN)NC1=O)[C@@H](C)O` gave an MIC of 2 µg/mL (broth microdilution; ATCC 25922, Mueller-Hinton broth).
For `CC[C@H](C)[C@H](NC(=O)[C@H](CC(C)C)NC(=O)[C@@H](NC(=O)[C@H](CCCNC(=N)N)NC(=O)[C@H](CCCNC(=N)N)NC(=O)[C@H](CCCNC(=N)N)NC(=O)[C@@H](N)CCCNC(=N)N)[C@@H](C)CC)C(=O)N[C@@H](CCCNC(=N)N)C(=O)N[C@@H](CCCNC(=N)N)C(=O)N[C@H](C(=O)N[C@@H](CC(C)C)C(=O)N[C@@H](CCCNC(=N)N)C(=O)N[C@@H](CC(C)C)C(=O)N[C@@H](CCCNC(=N)N)C(=O)N[C@@H](CO)C(=O)N[C@@H](CO)C(=O)N[C@@H](C)C(=O)N[C@@H](Cc1ccc(O)cc1)C(N)=O)C(C)C`, the MIC was 16 µM (checkerboard; 24 h, 37 °C, alone, rifampicin plate).
The MIC of `CCCCCCC/C=C/C(=O)N1C(=O)/C(=C(\O)CCCC)C(=O)C1CC(C)C` (stereo not shown) is reported as 100 µg/mL (K12 ΔtolC).
`CC1(C)SC2C(NC(=O)C(NC(=O)C3=C(O)C(Cc4ccsc4)NC3=O)c3ccccc3)C(=O)N2C1C(=O)O` (stereo not shown) gave an MIC of greater than 200 µg/mL (broth microdilution; isolate IU 356 A, KPC-3, VIM-1, TEM; no clavulanic acid).
For `CC[C@H](C)[C@H](NC(=O)CN)C(=O)N[C@@H](CC(C)C)C(=O)N[C@@H](C)C(=O)N[C@@H](C)C(=O)N[C@H](C(=O)N[C@@H](CCCCN)C(=O)N[C@@H](C)C(=O)N[C@H](C(=O)N[C@@H](C)C(=O)N[C@@H](CCCCN)C(=O)N[C@@H](C)C(=O)N[C@@H](C)C(=O)NCC(N)=O)[C@@H](C)CC)[C@@H](C)CC`, the MIC was 64 µg/mL (ATCC 25922, Mueller-Hinton broth; 12 h, 37 °C).
With `CC1(C)CC[C@]2(C(=O)O)CC[C@]3(C)C(=CC[C@@H]4[C@@]5(C)CC[C@H](O)C(C)(C)[C@@H]5CC[C@]43C)[C@@H]2C1` the MIC was 512 µg/mL (BL21 pET28a-OXA-1).

Some of these lines once more:
The MIC of `CCCCCCC/C=C/C(=O)N1C(=O)/C(=C(\O)CCCC)C(=O)C1CC(C)C` (stereo not shown) is reported as 100 µg/mL (K12 ΔtolC).
